Experimental data collected from several papers.
Compare with care: the assays were run in different laboratories. Several values in a cell are separate wells, animals, samples, runs or records. ± marks the error that the study gave. Converted amounts (≈) assume the structure as drawn.
UniProt O60307, sequence (whole entry, looked up): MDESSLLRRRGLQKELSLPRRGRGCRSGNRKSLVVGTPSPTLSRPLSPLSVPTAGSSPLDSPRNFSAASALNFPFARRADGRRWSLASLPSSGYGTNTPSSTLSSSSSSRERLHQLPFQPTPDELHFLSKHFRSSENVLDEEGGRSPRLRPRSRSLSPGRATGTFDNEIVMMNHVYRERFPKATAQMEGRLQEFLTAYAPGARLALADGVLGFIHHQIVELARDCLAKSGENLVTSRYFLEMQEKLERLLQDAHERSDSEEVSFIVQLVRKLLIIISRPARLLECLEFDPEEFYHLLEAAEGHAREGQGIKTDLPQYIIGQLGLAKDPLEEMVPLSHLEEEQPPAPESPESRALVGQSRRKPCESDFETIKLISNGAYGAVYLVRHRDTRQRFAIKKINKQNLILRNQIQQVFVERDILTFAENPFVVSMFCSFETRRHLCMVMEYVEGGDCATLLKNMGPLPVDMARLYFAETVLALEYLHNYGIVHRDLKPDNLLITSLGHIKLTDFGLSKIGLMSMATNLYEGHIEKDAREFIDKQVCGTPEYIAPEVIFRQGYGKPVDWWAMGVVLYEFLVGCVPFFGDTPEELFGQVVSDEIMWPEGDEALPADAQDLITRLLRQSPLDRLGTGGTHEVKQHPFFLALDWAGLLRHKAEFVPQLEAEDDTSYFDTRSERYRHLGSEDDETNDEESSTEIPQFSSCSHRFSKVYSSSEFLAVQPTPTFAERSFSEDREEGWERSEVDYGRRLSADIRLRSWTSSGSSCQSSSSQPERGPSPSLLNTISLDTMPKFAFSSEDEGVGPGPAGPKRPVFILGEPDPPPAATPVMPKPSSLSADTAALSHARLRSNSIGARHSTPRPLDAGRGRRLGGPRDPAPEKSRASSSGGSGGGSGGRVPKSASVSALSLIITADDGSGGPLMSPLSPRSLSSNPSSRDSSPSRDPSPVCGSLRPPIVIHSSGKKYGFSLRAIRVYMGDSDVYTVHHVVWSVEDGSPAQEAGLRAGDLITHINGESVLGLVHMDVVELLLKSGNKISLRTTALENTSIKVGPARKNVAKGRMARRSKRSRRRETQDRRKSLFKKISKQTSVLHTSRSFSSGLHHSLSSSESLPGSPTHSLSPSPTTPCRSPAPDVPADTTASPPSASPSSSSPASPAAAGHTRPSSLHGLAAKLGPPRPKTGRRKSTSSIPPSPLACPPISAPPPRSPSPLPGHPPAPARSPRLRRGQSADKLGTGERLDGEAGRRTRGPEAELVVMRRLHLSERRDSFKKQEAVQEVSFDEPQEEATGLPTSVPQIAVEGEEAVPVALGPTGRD
UniProt P50750, sequence (whole entry, looked up): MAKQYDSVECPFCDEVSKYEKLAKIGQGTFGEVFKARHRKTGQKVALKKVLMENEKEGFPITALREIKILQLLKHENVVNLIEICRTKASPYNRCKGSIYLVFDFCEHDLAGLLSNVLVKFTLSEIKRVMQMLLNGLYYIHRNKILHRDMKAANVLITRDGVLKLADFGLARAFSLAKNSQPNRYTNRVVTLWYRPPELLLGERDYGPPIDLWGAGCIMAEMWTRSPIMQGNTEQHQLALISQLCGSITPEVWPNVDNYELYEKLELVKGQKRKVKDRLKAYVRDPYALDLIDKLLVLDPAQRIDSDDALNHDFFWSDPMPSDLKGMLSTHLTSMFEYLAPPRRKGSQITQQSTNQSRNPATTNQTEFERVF
UniProt Q8I2X3, sequence (whole entry, looked up): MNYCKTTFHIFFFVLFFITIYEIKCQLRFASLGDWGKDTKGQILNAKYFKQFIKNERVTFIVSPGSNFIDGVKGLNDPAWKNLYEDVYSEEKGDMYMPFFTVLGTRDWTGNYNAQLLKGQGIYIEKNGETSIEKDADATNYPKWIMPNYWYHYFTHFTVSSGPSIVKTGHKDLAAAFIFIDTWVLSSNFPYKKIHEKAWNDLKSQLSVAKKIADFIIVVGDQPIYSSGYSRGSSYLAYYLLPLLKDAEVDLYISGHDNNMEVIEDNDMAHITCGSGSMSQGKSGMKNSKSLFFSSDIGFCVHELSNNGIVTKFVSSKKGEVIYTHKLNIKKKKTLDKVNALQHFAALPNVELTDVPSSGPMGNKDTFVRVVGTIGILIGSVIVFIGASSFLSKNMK
UniProt P00388, sequence (whole entry, unmodified, looked up): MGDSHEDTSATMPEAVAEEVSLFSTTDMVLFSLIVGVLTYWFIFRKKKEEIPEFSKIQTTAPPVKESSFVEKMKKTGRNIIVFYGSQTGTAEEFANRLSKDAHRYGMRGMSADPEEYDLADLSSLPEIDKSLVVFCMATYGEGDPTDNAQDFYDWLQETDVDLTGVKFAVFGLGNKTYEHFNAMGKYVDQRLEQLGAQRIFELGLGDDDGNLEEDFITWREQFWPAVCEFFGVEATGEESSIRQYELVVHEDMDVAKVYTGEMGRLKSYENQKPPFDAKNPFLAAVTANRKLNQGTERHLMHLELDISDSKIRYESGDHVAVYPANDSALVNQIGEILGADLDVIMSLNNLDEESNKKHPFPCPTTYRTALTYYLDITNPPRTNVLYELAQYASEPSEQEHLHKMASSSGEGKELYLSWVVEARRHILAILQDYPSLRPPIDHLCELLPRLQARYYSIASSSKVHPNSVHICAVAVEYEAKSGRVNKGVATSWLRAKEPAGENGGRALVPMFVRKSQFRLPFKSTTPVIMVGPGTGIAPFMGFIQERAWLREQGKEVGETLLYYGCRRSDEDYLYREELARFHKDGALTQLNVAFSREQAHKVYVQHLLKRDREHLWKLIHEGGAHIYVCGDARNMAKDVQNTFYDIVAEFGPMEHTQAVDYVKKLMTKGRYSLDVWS
UniProt P42684, sequence (whole entry, looked up): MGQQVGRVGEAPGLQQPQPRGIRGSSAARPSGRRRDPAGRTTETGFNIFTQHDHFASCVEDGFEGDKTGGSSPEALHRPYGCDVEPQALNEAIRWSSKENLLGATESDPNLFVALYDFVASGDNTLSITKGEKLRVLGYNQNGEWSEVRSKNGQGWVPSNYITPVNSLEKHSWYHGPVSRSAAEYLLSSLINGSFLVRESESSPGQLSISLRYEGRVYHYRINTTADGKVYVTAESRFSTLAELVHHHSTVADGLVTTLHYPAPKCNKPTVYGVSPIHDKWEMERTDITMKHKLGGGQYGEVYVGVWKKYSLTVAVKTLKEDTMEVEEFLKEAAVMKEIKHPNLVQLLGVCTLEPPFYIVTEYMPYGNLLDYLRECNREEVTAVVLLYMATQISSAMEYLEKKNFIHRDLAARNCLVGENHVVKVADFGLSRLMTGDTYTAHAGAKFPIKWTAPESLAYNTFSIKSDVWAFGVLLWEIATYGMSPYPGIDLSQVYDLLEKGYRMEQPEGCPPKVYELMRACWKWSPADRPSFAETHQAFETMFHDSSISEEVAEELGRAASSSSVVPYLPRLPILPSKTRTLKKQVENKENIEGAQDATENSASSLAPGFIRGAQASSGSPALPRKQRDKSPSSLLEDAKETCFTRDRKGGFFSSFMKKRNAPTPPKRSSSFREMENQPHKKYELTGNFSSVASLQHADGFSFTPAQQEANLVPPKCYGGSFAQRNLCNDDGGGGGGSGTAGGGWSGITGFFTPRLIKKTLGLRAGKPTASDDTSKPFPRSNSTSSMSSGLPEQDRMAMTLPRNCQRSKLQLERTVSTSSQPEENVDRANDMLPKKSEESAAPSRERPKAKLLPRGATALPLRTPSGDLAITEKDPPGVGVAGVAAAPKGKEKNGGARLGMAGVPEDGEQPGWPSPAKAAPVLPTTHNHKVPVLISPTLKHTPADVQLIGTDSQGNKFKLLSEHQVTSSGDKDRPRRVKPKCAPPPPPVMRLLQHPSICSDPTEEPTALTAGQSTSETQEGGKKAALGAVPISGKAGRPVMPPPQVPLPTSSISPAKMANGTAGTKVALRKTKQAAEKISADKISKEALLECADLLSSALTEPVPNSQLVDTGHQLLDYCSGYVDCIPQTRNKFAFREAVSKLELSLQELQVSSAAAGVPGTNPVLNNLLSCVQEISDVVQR

With `COc1ccccc1[C@H](Cn1c(=O)n(C(C)(C)C(=O)O)c(=O)c2c(C)c(-c3ncco3)sc21)OC1CCOCC1` the serum adiponectin was 5.47 ± 2.24 µg/mL (human; 50 mg, post-treatment).
For `Cc1n[nH]c2ccc(-c3cc(OC[C@@H](N)Cc4ccccc4)cnc3-c3ccoc3)cc12`, “log2 fold change” read -3.89 (kinase binding, competitor, MIB/MS competition, item: RIM11; Candida albicans cell lysate; 10 µM; baseline: DMSO).
`CC(=O)NC[C@H]1CN(c2ccc(N3CCOCC3)c(F)c2)C(=O)O1` gave an MIC50 of 2 µg/mL (≈ 5.93 µM) (Enterococcus faecalis; vancomycin-intermediate, 10 isolates; pH 5.5).
`C=CC(=O)N1CCC([C@@H]2CCNc3c(C(N)=O)c(-c4ccc(Oc5ccccc5)cc4)nn32)CC1`: “time to response” 2.6 to 16.4 months (human, relapsed/refractory B-cell malignancies; dose not given).
`N#Cc1ccn2c(-c3ccncc3)c(-c3ccc(F)cc3)nc2c1` — result for “log2 fold change”: -0.0969 (kinase binding, competitor, MIB/MS competition, item: HRR25; Candida albicans cell lysate; 100 nM; baseline: DMSO).
The serum immunoglobulin of `CC#CC(=O)N[C@H]1CCCN(c2c(F)cc(C(N)=O)c3[nH]c(C)c(C)c23)C1` is reported as -5.7 % change (item: IgM; human; 10 mg once daily, day 21; baseline: baseline).
`CCCN(O)N=Nc1ccc(S(=O)(=O)Nc2nccs2)cc1` — result for “paw edema volume”: 6.39 ± 1.12 a.u. (carrageenan-induced paw edema; Wistar rat; oral, 100 mg/kg, 1 h after carrageenan, with: carrageenan 1% subplantar; higher = more edema).
`Oc1ccc(N=Nc2ccc(-c3nc4ccccc4s3)cc2)cc1CN(Cc1ccccc1)Cc1ccccn1` gave a TEAC of greater than 2 (ABTS radical scavenging; unit not given; baseline: Trolox).
`COc1cc2cc(-c3ccc(CC(=O)Nc4cc(C(C)(C)C(F)(F)F)no4)cn3)cnc2cc1OC` — result for “stable disease as best response”: 0% (RECIST v1.1; RET-altered advanced solid tumour patients; oral, 20 mg once daily, phase I).
`CC(C)NCC(O)c1ccc(O)c(O)c1` (centres unmarked) gave a sarcomere length of 1.55 µm (ventricular cardiomyocytes, C57BL/6 mouse; dose not given, 0.156 s).
With `CC[C@@H]1[C@H](F)C(=O)N[C@@H]1COc1nccc2cc(C(N)=O)c(OC)cc12` the inhibition was 11.4% (Microtubule-associated serine/threonine-protein kinase 3 (MAST3, Homo sapiens, UniProt O60307); ATP-site probe binding, ActivX profiling; THP-1 cell lysate; 0.01 mM, Lys2 site).
`CN(O)N=Nc1ccc(S(=O)(=O)Nc2nccs2)cc1` — result for “paw edema volume”: 3.21 ± 0.82 a.u. (carrageenan-induced paw edema; Wistar rat; oral, 100 mg/kg, 0 h (baseline), with: carrageenan 1% subplantar; higher = more edema).
With `CCc1nc2ccccc2n1C[C@H](O)COc1cc(C)ccc1Cl` the Kd was 48300 nM (Glideosome-associated protein 50 (GAP50, Plasmodium falciparum, UniProt Q8I2X3); binding, surface plasmon resonance; 1:1 binding model).
`COc1cc(-c2ccccc2)ncc1C(=O)Nc1ccc2c(=O)[nH]c(-c3ccc(C(C)(C)O)cc3)nc2c1`: “normalized enrichment score” -1.49 (RNA-seq GSEA, item: HALLMARK_NOTCH_SIGNALING; organoids, small intestinal, Apc Q1405X, mouse; dose not given, knockout organoids; baseline: DMSO, direction not given).
Under “paw edema volume”, `Cc1noc(NS(=O)(=O)c2ccc(N=NN(O)c3ccccc3)cc2)c1C` is recorded as 3.59 ± 0.41 a.u. (carrageenan-induced paw edema; Wistar rat; oral, 100 mg/kg, 0 h (baseline), with: carrageenan 1% subplantar; higher = more edema).
For `CC(C)C[C@H](NC(=O)C[C@H](O)[C@H](CC(C)C)NC(=O)[C@H](Cc1c[nH]cn1)NC(=O)CNC(=O)[C@@H](NC(=O)[C@H](C)NC(=O)[C@H](Cc1c[nH]c2ccccc12)NC(=O)[C@H](CCC(N)=O)NC(=O)[C@@H](Cc1ccccc1)NC(=O)COCCOCCNC(=O)CCC(C(=O)O)N1CCN(CC(=O)O)CCN(CC(=O)O)CCN(CC(=O)O)CC1)C(C)C)C(N)=O` (some centres unmarked) [lutetium-177 labelled], the tissue uptake was 0.14 ± 0.07 %ID/g (BALB/c nu/nu mice, muscle; intravenous, 50 pmol, 1 h, with: PA 300 µg).
`N#Cc1ccc2c(c1)[C@H]1CCCN(C(=O)c3ccc4[nH]cnc4c3)[C@H]1C2`: “androstenedione change from baseline” 1.75 nmol/L (human clinical trial, male; oral, 240 mg once daily).
For `COc1cc(/C=C/C(=O)N2CCC=CC2=O)cc(OC)c1OC`, the mRNA level was 0.952 (qRT-PCR, item: Glut1; nude mouse MDA-MB-468 xenograft, tumour; 15 mg/kg, 21 days, normalised to beta-actin, unit not given; baseline: vehicle).
For `CCO[C@H]1CCN(Cc2c(OC)cc(C)c3[nH]ccc23)[C@H](c2ccc(C(=O)O)cc2)C1`, “PNH RBC clone size” read 168% (PNH patients, blood; oral, 25 mg then 100 mg, week 12, mean percent change; baseline: baseline).
`Cc1c(NC(=O)c2cccnc2)c(=O)n(-c2ccccc2)n1C`: “centrally nucleated fibres” 64% and 61% and 49% and 62% and 57% (histology; Dmd C3333Y mice, triceps; dose not given).
`NCCc1c[nH]c2ccc(O)cc12` — result for “duration of calcium response”: no less than 60 min (GCaMP6f imaging; choroid plexus epithelial cells, awake mice; intraperitoneal, 3 mg/kg).
`CC(C)(C(=O)N1CCOc2c(C#N)cncc2C1)C(F)F` — result for “subjects with TEAE”: 12.5% (item: blood and lymphatic disorders; human, both sexes; oral, 15 mg twice daily, 14 days, multiple ascending dose).
Under “paw edema volume”, `Cc1ccc(N(O)N=Nc2ccc(S(=O)(=O)Nc3onc(C)c3C)cc2)cc1` is recorded as 4.89 ± 0.43 a.u. (carrageenan-induced paw edema; Wistar rat; oral, 100 mg/kg, 3 h after carrageenan, with: carrageenan 1% subplantar; higher = more edema).
For `Cn1cc(-c2ccc(-c3cncc(Cl)c3N3CCC4(CCNC4=O)CC3)cc2)cn1`, “log2 fold change” read 2.15 (COLO 205; gene expression, microarray, item: DDR1 mRNA; concentration not given, 6 h; baseline: untreated cells).
For `COc1nc(NCc2cn(-c3ccc(NC(=O)c4ccc(F)cc4)cc3)nn2)nc(OC)n1`, the IC50 was 14.8 ± 6.18 nM (cell viability, MTT; normal colonocytes, rat; 72 h).
`Cc1cccc(N(O)N=Nc2ccc(S(=O)(=O)Nc3nccs3)cc2)c1` — result for “paw edema volume”: 5.41 ± 0.73 a.u. (carrageenan-induced paw edema; Wistar rat; oral, 100 mg/kg, 1 h after carrageenan, with: carrageenan 1% subplantar; higher = more edema).
Under “drug secreted with TRL”, `CC1(C)CCC(c2ccc(Cl)cc2)=C(CN2CCN(c3ccc(C(=O)NS(=O)(=O)c4ccc(N[C@H](CCN5CCOCC5)CSc5ccccc5)c(S(=O)(=O)C(F)(F)F)c4)cc3)CC2)C1` is recorded as 2.8 ± 1.9% (mouse ileal enteroid monolayers; 50 % saturated solubility, 4 h, basolateral fractions 1-10, with: taurocholate/phosphatidylcholine micelles).
Under “change from baseline”, `NC(=O)c1cnc2[nH]ccc2c1N[C@@H]1[C@@H]2CC3C[C@H]1C[C@@](O)(C3)C2` is recorded as 0.08% (flow cytometry, item: CD4+ effector memory T cells; Japanese healthy subjects, peripheral blood; oral, 10 mg twice daily, day 4).
`O=S(=O)(Nc1nccs1)c1ccc(N=NN(O)c2ccccc2)cc1` — result for “paw edema volume”: 4.43 ± 0.76 a.u. (carrageenan-induced paw edema; Wistar rat; oral, 100 mg/kg, 4 h after carrageenan, with: carrageenan 1% subplantar; higher = more edema).
For `Cn1cc(Nc2nccc(-c3ccc4c(c3)CN(C3COC3)CC[C@H]4NC(=O)c3cn(C(C)(C)C)nn3)n2)cn1`, “pathway activation z-score” read 4.24 (item: NGF signalling; mouse splenic B cells, mouse; 30 mg/kg, IgD-activated B cells in vivo; baseline: vehicle, direction not given).
For `OC(CCN1CCCCC1)(c1ccccc1)C1CC2C=CC1C2` (centres unmarked), “change in EEG Alpha1-power Pz-O1” read 4.6% (resting-state EEG; healthy elderly humans; oral, 2 mg, eyes open, LS mean; baseline: baseline).
With `CN1CCN(c2ccc(Nc3ncc4cc(C#N)c(=O)n(C5CCCC5)c4n3)cc2)CC1` the IC50 was 63.4 nM (Tyrosine-protein kinase ABL2 (ABL2, Homo sapiens, UniProt P42684)).
For `CC(C)[C@H](NC(=O)[C@H](Cc1ccc(O)cc1)NC(=O)[C@H](Cc1ccc(O)cc1)NC(=O)[C@@H]1CCCN1C(=O)[C@H](CCC(=O)O)NC(=O)[C@H](CCC(=O)O)NC(=O)[C@H](Cc1c[nH]c2ccccc12)NC(=O)[C@@H]1CCCN1C(=O)[C@@H](NC(=O)[C@H](CCC(N)=O)NC(=O)c1ccc2c(c1)C(=O)OC21c2ccc(O)cc2Oc2cc(O)ccc21)C(C)C)C(=O)N[C@H](C(=O)N[C@@H](CCCCN)C(=O)N[C@@H](CCCCN)C(=O)N[C@@H](CO)C(=O)N[C@@H](CO)C(=O)NCC(=O)NCC(N)=O)C(C)C`, the plasma concentration was 36.7 ng/mL (item: total compound; human, plasma; intravenous infusion, 40 mg, 1 h).
For `N#Cc1ccc2c(c1)[C@H]1CCCN(C(=O)c3ccc4[nH]cnc4c3)[C@H]1C2`, the DHEA-S level was 5.4 µmol/L (human, male; 80 mg, day 7).
`CC(C)C[C@H](NC(=O)[C@@H](Cc1c[nH]c2ccccc12)NC(=O)[C@H](Cc1ccc(O)cc1)NC(=O)[C@H](CO)NC(=O)[C@H](Cc1c[nH]c2ccccc12)NC(=O)[C@H](Cc1c[nH]cn1)NC(=O)[C@@H]1CCC(=O)N1)C(=O)N[C@@H](CCCNC(=N)N)C(=O)N1CCC[C@H]1C(=O)NCC(N)=O`: “boys at genital stage” 50% (Chinese boys, central precocious puberty; intramuscular, 22.5 mg day 1, month 6, month 6, unchanged Tanner stage II; baseline: screening).
`Cc1cc(F)cc2c(CCC(=O)N[C@@H]3C(=O)NC[C@H]3O)c(-c3ccc(F)cc3)[nH]c12` gave a UACR of 19.5 µg/mg and 9.55 µg/mg and 23.9 µg/mg and 19.1 µg/mg and 32.4 µg/mg (mice, APOL1 G2, single copy; day 0, before treatment, with: IFNγ plasmid injection).
For `Cc1cccc(N(O)N=Nc2ccc(S(=O)(=O)Nc3onc(C)c3C)cc2)c1`, “paw edema volume” read 4.42 ± 0.83 a.u. (carrageenan-induced paw edema; Wistar rat; oral, 100 mg/kg, 4 h after carrageenan, with: carrageenan 1% subplantar; higher = more edema).
For `CC(C)(C)c1cnc(CSc2cnc(NC(=O)C3CCN(C(=O)CCCCCCN4Cc5cc6c(cc5C4)C(=O)N(C4CCC(=O)NC4=O)C6=O)CC3)s2)o1` (centres unmarked), the DC50 was 2 ± 0.7 nM (Cyclin-dependent kinase 9 (CDK9, Homo sapiens, UniProt P50750); degrader, Western blot; TC-71).
With `O=C(O)CNC(=O)Cc1ccccc1` the sarcomere length was 1.63 µm (ventricular cardiomyocytes, C57BL/6 mouse; dose not given, 0.564 s).
With `NC(=O)c1ccc[n+]([C@@H]2O[C@H](COP(=O)(O)OP(=O)(O)OC[C@H]3O[C@@H](n4cnc5c(N)ncnc54)[C@H](OP(=O)(O)O)[C@@H]3O)[C@@H](O)[C@H]2O)c1` the Ki was 5100 ± 420 nM (NADPH--cytochrome P450 reductase (Rattus norvegicus, UniProt P00388, W677A); cytochrome c reduction, inhibitor; with: NADPH).
Under “inhibition of platelet aggregation”, `NCC(=O)Nc1cncc(-c2nn3c(=O)cc(N4CCNCC4)nc3s2)c1` is recorded as 52.5% (ADP-induced platelet aggregation, light transmission aggregometry; human stable CAD patients on aspirin, platelets ex vivo; 0.075 mg/kg, 60 min post dose, with: 20 µM ADP; baseline: placebo difference).

For quick reference, copied from above:
For `COc1nc(NCc2cn(-c3ccc(NC(=O)c4ccc(F)cc4)cc3)nn2)nc(OC)n1`, the IC50 was 14.8 ± 6.18 nM (cell viability, MTT; normal colonocytes, rat; 72 h).
For `Cn1cc(-c2ccc(-c3cncc(Cl)c3N3CCC4(CCNC4=O)CC3)cc2)cn1`, “log2 fold change” read 2.15 (COLO 205; gene expression, microarray, item: DDR1 mRNA; concentration not given, 6 h; baseline: untreated cells).
`CC(C)(C(=O)N1CCOc2c(C#N)cncc2C1)C(F)F` — result for “subjects with TEAE”: 12.5% (item: blood and lymphatic disorders; human, both sexes; oral, 15 mg twice daily, 14 days, multiple ascending dose).
For `Cc1cccc(N(O)N=Nc2ccc(S(=O)(=O)Nc3onc(C)c3C)cc2)c1`, “paw edema volume” read 4.42 ± 0.83 a.u. (carrageenan-induced paw edema; Wistar rat; oral, 100 mg/kg, 4 h after carrageenan, with: carrageenan 1% subplantar; higher = more edema).
Under “inhibition of platelet aggregation”, `NCC(=O)Nc1cncc(-c2nn3c(=O)cc(N4CCNCC4)nc3s2)c1` is recorded as 52.5% (ADP-induced platelet aggregation, light transmission aggregometry; human stable CAD patients on aspirin, platelets ex vivo; 0.075 mg/kg, 60 min post dose, with: 20 µM ADP; baseline: placebo difference).
Under “paw edema volume”, `Cc1noc(NS(=O)(=O)c2ccc(N=NN(O)c3ccccc3)cc2)c1C` is recorded as 3.59 ± 0.41 a.u. (carrageenan-induced paw edema; Wistar rat; oral, 100 mg/kg, 0 h (baseline), with: carrageenan 1% subplantar; higher = more edema).
Under “paw edema volume”, `Cc1ccc(N(O)N=Nc2ccc(S(=O)(=O)Nc3onc(C)c3C)cc2)cc1` is recorded as 4.89 ± 0.43 a.u. (carrageenan-induced paw edema; Wistar rat; oral, 100 mg/kg, 3 h after carrageenan, with: carrageenan 1% subplantar; higher = more edema).
